Published values from different studies.
Protocols differ between the studies behind these lines. Numbers after ± are the reported error.

Compound | cell line | read-out | technique | time | temperature | notes | CC50 [µM]
CC(C)C[C@@H]1NC(=O)[C@@H](Cc2c[nH]c3ccccc23)NC(=O)[C@H](CCCN)NC(=O)[C@@H](CO)NC(=O)[C@H](CCC(N)=O)NC(=O)[C@@H](CCC(=O)O)NC(=O)[C@H](CO)NC(=O)[C@@H](Cc2c[nH]c3ccccc23)NC1=O | NCI cell lines | cytotoxicity |  |  |  |  | > 40
CCCCCCCCCC1=CC(=O)c2ccccc2S1(=O)=O | U-937 |  | MTT | 72 h |  |  | 27.9
C=C1C(=O)OC2CC(C)C3C=CC(=O)C3(C)C(O[Si](C)(C)C(C)C)C12 (centres unmarked) | BALB/c mouse splenocytes |  | propidium iodide flow cytometry | 48 h |  | 10% fetal calf serum | 1.1
C=CCCCC(NC(=O)[C@H](CCC(N)=O)NC(=O)[C@H](CCC(N)=O)NC(=O)[C@H](CC(C)C)NC(=O)C(CCCC=C)NC(=O)[C@H](CCCNC(=N)N)NC(=O)[C@@H](NC(=O)[C@@H](NC(=O)[C@H](C)NC(=O)[C@H](CCC(=O)O)NC(C)=O)[C@@H](C)CC)[C@@H](C)CC)C(=O)N[C@@H](CC(C)C)C(=O)N[C@@H](Cc1ccccc1)C(=O)N[C@H](C(=O)N[C@@H](Cc1c[nH]cn1)C(=O)N[C@@H](Cc1ccccc1)C(=O)N[C@@H](CCCNC(=N)N)C(=O)N[C@H](C(=O)NCC(N)=O)[C@@H](C)CC)[C@@H](C)CC (some centres unmarked) | MT4 (mock-infected) |  | MTT |  |  |  | > 10
O=C(CCCCCCc1ccc(O)c(O)c1)c1c(O)cccc1O | Vero E6/TMPRSS2 |  | MTT |  |  |  | 41
C=C1C(=O)O[C@@H]2C[C@H](C)[C@@H]3C[C@H](O[Si](C)(C)C(C)C)[C@H](O[Si](C)(C)C(C)C)[C@@]3(C)C[C@H]12 | BALB/c mouse splenocytes |  | propidium iodide flow cytometry | 48 h |  | 10% fetal calf serum | 80.8
C=C1C(=O)OC2C1CCC(Cn1cc(-c3cc(C(F)(F)F)cc(C(F)(F)F)c3)nn1)=C1CCC(C)(O)C12 (centres unmarked) | M9-ENL1 | cell viability | MTT | 24 h |  |  | 2.2 ± 0.1
CSCC[C@@H](C=O)NC(=O)[C@H](CC(C)C)NC(=O)[C@H](CC(C)C)NC(C)=O | MRC-5 |  |  | 5 days |  |  | > 100
OC[C@H]1[C@@H](O)[C@@H](O)CN1Cc1ccc(I)cc1 | MRC-5 |  | MTS | 72 h |  |  | > 200
Clc1ccc(CN2CCCC3=CC4CC(CN5CCCCC45)C32)c(Cl)c1 (centres unmarked) | Vero E6 |  |  |  |  |  | 177
C=C1C(=O)OC2CC(C)C3C=CC(=O)C3(C)C(OC(C)=O)C12 (centres unmarked) | BALB/c mouse splenocytes |  | propidium iodide flow cytometry | 48 h |  | 10% fetal calf serum | 1.4
O=c1cc[s+]([O-])c2ccc(Cl)cc12 (single isomer, unassigned; (+)) | U-937 |  | MTT | 72 h |  |  | 636
CC(C)C[C@H](NC(=O)c1cc2c(OC(F)(F)F)cccc2[nH]1)C(=S)N[C@@H](C[C@@H]1CCNC1=O)C(=O)c1nc2cc(F)ccc2s1 | VeroE6 |  |  | 3 d |  |  | 50 ± 1.1
CC(C)C[C@@H]1NC(=O)[C@@H](Cc2c[nH]c3ccccc23)NC(=O)[C@H](CCCNC(=N)N)NC(=O)[C@@H](CCC(=O)O)NC(=O)[C@H](CCC(N)=O)NC(=O)[C@@H](CCC(=O)O)NC(=O)[C@H](CCCNC(=N)N)NC(=O)[C@@H](Cc2c[nH]c3ccccc23)NC1=O | NCI cell lines | cytotoxicity |  |  |  |  | 36
CC[C@H](C)[C@H](NC(C)=O)C(=O)N[C@@H](CO)C(=O)N[C@@H](CC(C)C)C(=O)N[C@@H](CCC(=O)O)C(=O)N[C@@H](CCCNC(=N)N)C(=O)N[C@@H](CC(C)C)C(=O)N[C@@H](CC(=O)O)C(=O)N[C@H](C(=O)N[C@@H](CCC(=O)O)C(=O)N[C@@H](CCC(=O)O)C(=O)N[C@@H](CC(N)=O)C(=O)N[C@@H](CC(C)C)C(=O)N[C@@H](CCCCN)C(=O)N[C@@H](CCCCN)C(=O)N[C@@H](C)C(=O)N[C@@H](CCC(=O)O)C(=O)N[C@@H](CCC(=O)O)C(=O)N[C@@H](CCCCN)C(=O)N[C@@H](CC(C)C)C(=O)N[C@@H](CCCCN)C(=O)N[C@@H](CCCCN)C(=O)N[C@@H](C)C(=O)N[C@@H](CCC(=O)O)C(=O)N[C@@H](CCC(=O)O)C(=O)N[C@@H](CC(C)C)C(=O)N[C@@H](CC(C)C)C(=O)N[C@@H](CCCCN)C(=O)N[C@@H](CCCCN)C(=O)N[C@@H](CO)C(=O)N[C@@H](CCC(=O)O)C(=O)N[C@@H](CCC(=O)O)C(=O)N[C@H](C(=O)N[C@@H](CC(C)C)C(=O)N[C@@H](CCCCN)C(=O)N[C@@H](CCCCN)C(N)=O)[C@@H](C)CC)C(C)C | B95a |  | MTT | 8 days | 37 °C |  | > 10
O=C1C(Cc2ccc(C(F)(F)F)cc2)=CS(=O)(=O)c2ccccc21 | U-937 |  | MTT | 72 h |  |  | 5.91
COc1ccc(CCCCCCCCC(=O)c2c(OC)cccc2OC)cc1OC | Vero E6/TMPRSS2 |  | MTT |  |  |  | 27
CC(C)C[C@H](NC(=O)c1cc2c(F)ccc(F)c2[nH]1)C(=S)N[C@@H](C[C@@H]1CCNC1=O)C(=O)c1nc2cc(F)ccc2s1 | VeroE6 |  | WST-8 | 3 (unit not given) |  |  | 38 ± 1.1
O=C(CCCCCCCCCCc1ccc(O)c(O)c1)c1c(O)cccc1O | Vero E6/TMPRSS2 |  | MTT |  |  |  | 32
O=c1cc[s+]([O-])c2ccccc12 (single isomer, unassigned; (+)) | U-937 |  | MTT | 72 h |  |  | 852
CC(C)C[C@H](NC(=O)c1cc2c(OC(F)(F)F)cccc2[nH]1)C(=O)N[C@@H](C[C@@H]1CCNC1=O)C(=O)c1nc2ccccc2s1 | VeroE6 |  | WST-8 | 3 (unit not given) |  |  | > 100
CC[C@H](C)[C@H](NC(=O)[C@H](CCC(=O)O)NC(=O)[C@H](CCC(=O)O)NC(=O)[C@H](CO)NC(=O)[C@H](CCCCN)NC(=O)[C@H](CCCCN)NC(=O)[C@H](CC(C)C)NC(=O)[C@H](CC(C)C)NC(=O)[C@H](CCC(=O)O)NC(=O)[C@H](CCC(=O)O)NC(=O)[C@H](C)NC(=O)[C@H](CCCCN)NC(=O)[C@H](CCCCN)NC(=O)[C@H](CC(C)C)NC(=O)[C@H](CCCCN)NC(=O)[C@H](CCC(=O)O)NC(=O)[C@H](CCC(=O)O)NC(=O)[C@H](C)NC(=O)[C@H](CCCCN)NC(=O)[C@H](CCCCN)NC(=O)[C@H](CC(C)C)NC(=O)[C@H](CC(N)=O)NC(=O)[C@H](CCC(=O)O)NC(=O)[C@H](CCC(=O)O)NC(=O)[C@@H](NC(C)=O)C(C)C)C(=O)N[C@@H](CC(C)C)C(=O)N[C@@H](CCCCN)C(=O)N[C@@H](CCCCN)C(N)=O | B95a |  | MTT | 8 days | 37 °C |  | > 10
C=CCCCC(NC(=O)[C@H](CC(C)C)NC(=O)[C@@H](NC(=O)[C@H](CCCNC(=N)N)NC(=O)C(CCCC=C)NC(=O)[C@@H](NC(=O)[C@H](C)NC(=O)[C@H](CCC(=O)O)NC(C)=O)[C@@H](C)CC)[C@@H](C)CC)C(=O)N[C@@H](CCC(N)=O)C(=O)N[C@@H](CC(C)C)C(=O)N[C@@H](CC(C)C)C(=O)N[C@@H](Cc1ccccc1)C(=O)N[C@H](C(=O)N[C@@H](Cc1c[nH]cn1)C(=O)N[C@@H](Cc1ccccc1)C(=O)N[C@@H](CCCNC(=N)N)C(=O)N[C@H](C(=O)NCC(N)=O)[C@@H](C)CC)[C@@H](C)CC (some centres unmarked) | MT4 (mock-infected) |  | MTT |  |  |  | > 10
CCCCNCC(O)Cn1c2ccc(Cl)cc2c2cc(Cl)ccc21 (centres unmarked) | WI-38 | cell growth or viability | MTT |  |  |  | 7.93
C1=[N+]2CCCC[N+]3=Cc4ccc5[n]4[Au-]23[n]2c1ccc2-c1nc2ccccc2nc1-5.F[P-](F)(F)(F)(F)F | ovarian cancer cell lines |  |  |  |  | NCI60 panel mean | 94
C1CCCCCC2(CCCCC1)OOCCCOO2 | HepG2/NTCP | cytotoxicity | trypan blue cell count | 9 days |  |  | 13

For quick reference, copied from above:
Compound | cell line | read-out | technique | time | temperature | notes | CC50 [µM]
Clc1ccc(CN2CCCC3=CC4CC(CN5CCCCC45)C32)c(Cl)c1 (centres unmarked) | Vero E6 |  |  |  |  |  | 177
O=c1cc[s+]([O-])c2ccc(Cl)cc12 (single isomer, unassigned; (+)) | U-937 |  | MTT | 72 h |  |  | 636
CCCCCCCCCC1=CC(=O)c2ccccc2S1(=O)=O | U-937 |  | MTT | 72 h |  |  | 27.9
CCCCNCC(O)Cn1c2ccc(Cl)cc2c2cc(Cl)ccc21 (centres unmarked) | WI-38 | cell growth or viability | MTT |  |  |  | 7.93
